Measurements of several laboratories.
Each line is one published result; not all experiments were run side by side. ± gives the spread as reported.
MAOA: Amine oxidase [flavin-containing] A (MAOA, Homo sapiens, UniProt P21397)
Sequence of UniProt P21397 (whole entry, looked up): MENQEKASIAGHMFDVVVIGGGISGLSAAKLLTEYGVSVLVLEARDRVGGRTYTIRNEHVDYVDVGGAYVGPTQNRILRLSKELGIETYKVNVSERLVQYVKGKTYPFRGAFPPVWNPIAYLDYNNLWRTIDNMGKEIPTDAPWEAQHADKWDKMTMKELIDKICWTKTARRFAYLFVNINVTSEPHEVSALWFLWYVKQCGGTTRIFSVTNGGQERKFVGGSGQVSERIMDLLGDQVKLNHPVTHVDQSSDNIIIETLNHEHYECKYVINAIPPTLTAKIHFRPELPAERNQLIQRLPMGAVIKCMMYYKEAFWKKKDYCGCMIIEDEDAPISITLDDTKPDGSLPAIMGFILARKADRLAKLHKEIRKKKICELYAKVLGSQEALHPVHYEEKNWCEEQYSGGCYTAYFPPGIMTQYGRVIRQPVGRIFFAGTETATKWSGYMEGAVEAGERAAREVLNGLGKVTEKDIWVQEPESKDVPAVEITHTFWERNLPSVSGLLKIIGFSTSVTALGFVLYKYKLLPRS
MTOR: Serine/threonine-protein kinase mTOR (MTOR, Homo sapiens, UniProt P42345)
Sequence of UniProt P08236 (whole entry, looked up): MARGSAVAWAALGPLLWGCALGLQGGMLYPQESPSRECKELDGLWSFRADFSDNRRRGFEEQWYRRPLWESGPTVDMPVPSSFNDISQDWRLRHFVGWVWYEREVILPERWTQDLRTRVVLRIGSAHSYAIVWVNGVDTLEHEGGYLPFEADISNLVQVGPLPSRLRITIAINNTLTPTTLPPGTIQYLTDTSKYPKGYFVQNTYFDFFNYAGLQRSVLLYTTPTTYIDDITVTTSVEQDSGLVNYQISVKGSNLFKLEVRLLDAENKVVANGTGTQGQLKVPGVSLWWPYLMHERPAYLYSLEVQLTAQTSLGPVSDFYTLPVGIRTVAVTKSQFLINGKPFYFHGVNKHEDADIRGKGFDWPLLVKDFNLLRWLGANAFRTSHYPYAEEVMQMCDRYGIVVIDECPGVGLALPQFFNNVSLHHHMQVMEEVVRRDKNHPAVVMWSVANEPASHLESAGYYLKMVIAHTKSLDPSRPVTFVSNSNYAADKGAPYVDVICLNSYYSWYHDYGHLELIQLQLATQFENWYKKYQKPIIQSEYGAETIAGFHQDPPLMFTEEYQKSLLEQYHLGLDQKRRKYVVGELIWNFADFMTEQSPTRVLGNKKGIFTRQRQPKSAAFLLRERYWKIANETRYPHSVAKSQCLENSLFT
Sequence of UniProt P23443 (whole entry, looked up): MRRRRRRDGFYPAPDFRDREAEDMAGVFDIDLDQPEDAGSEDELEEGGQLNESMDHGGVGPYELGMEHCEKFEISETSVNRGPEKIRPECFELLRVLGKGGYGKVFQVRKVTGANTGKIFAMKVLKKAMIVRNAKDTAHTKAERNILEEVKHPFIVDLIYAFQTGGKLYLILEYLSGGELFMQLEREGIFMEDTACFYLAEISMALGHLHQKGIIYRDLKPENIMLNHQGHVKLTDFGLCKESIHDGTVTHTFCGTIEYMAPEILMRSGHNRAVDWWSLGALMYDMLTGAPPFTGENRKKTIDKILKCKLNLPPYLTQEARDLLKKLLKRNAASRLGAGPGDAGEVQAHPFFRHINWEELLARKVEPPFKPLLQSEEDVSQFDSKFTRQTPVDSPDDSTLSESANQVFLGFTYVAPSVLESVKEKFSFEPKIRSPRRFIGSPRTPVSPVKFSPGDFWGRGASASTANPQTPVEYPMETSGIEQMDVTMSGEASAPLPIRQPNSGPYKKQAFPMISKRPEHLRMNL
Sequence of UniProt P16234 (whole entry, looked up): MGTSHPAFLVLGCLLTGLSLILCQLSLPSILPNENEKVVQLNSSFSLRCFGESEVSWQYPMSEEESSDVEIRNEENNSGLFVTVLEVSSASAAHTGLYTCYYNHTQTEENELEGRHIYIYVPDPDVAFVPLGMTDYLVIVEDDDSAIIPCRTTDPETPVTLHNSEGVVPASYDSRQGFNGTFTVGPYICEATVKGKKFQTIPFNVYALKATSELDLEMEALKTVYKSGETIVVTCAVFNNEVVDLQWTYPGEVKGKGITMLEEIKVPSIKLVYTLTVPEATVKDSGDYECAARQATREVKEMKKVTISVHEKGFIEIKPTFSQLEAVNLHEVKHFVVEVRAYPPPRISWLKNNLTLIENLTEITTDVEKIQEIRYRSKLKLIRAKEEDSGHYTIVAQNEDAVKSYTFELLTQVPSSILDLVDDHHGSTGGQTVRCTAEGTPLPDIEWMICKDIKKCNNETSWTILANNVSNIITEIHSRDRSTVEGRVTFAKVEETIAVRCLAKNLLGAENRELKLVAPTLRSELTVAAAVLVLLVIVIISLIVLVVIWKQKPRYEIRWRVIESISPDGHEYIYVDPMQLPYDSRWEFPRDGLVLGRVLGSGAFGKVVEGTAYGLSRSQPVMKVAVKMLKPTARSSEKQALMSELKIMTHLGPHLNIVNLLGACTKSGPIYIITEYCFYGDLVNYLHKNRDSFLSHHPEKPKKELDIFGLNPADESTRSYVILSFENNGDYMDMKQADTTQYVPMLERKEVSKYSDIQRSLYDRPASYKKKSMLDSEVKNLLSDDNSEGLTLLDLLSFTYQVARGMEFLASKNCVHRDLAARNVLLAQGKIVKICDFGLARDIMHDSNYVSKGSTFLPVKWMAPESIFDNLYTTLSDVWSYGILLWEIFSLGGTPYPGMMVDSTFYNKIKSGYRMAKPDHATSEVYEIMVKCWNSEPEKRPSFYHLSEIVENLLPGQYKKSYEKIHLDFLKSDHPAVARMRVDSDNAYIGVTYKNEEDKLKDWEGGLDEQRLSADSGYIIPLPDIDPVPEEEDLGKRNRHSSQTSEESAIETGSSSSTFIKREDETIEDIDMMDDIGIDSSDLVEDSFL

| Compound | target or system | assay | system | setting | how to read | quantity | value |
| --- | --- | --- | --- | --- | --- | --- | --- |
| NCCO[C@H]1[C@H](O)[C@@H](O)[C@@H]2O[C@@H]2[C@@H]1C(=O)O | Beta-glucuronidase (GUSB, Homo sapiens, UniProt P08236) | enzyme activity, inhibitor, competitive ABPP | human platelet lysate | 0.1 µM, pH 5.0, pre-incubation 60 min | – | remaining activity | inactive |
| COc1ccc(CCCN[C@@H]2CCC[C@H]2CN[C@@H]2CCC[C@H]2CNCCCCN[C@@H]2CCC[C@H]2CN)cc1 | MAOA | enzyme activity, inhibitor | – | – | – | Ki | 380 µM |
| CC[C@H]1[C@@H](O)[C@@H]2[C@H](CC[C@]3(C)[C@@H]([C@H](C)CCOS(=O)(=O)[O-])CC[C@@H]23)[C@@]2(C)CC[C@@H](O)C[C@@H]12.[Na+] | – | histology | ob/ob NASH mouse model, liver | oral, 3 mg/kg once daily, 8 weeks, scale 0 to 3 | direction not given | steatosis score | 3 |
| N=C(N)NCCC[C@@H]1NC(=O)[C@H](CCCCNC(=O)CC[C@H](NC(=O)CC[C@H](NC(=O)CN2CCN(CC(=O)O)CCN(CC(=O)O)CCN(CC(=O)O)CC2)C(=O)N[C@@H](CCC(=O)NCCCC[C@@H]2NC(=O)[C@@H](Cc3ccccc3)NC(=O)[C@H](CC(=O)O)NC(=O)CNC(=O)[C@H](CCCNC(=N)N)NC2=O)C(=O)NCCCC[C@@H]2NC(=O)[C@@H](Cc3ccccc3)NC(=O)[C@H](CC(=O)O)NC(=O)CNC(=O)[C@H](CCCNC(=N)N)NC2=O)C(=O)NCCCC[C@@H]2NC(=O)[C@@H](Cc3ccccc3)NC(=O)[C@H](CC(=O)O)NC(=O)CNC(=O)[C@H](CCCNC(=N)N)NC2=O)NC(=O)[C@@H](Cc2ccccc2)NC(=O)[C@H](CC(=O)O)NC(=O)CNC1=O [indium-111 labelled] | – | – | female athymic nu/nu mice, heart | intravenous, 24 h | – | tissue uptake | 0.54 ± 0.26 %ID/g |
| O=C1Nc2ccc(Cl)cc2/C1=N/N=C/c1ccc(OCc2cccc(F)c2)cc1 | MAOA | enzyme activity, inhibitor | – | 10 µM | – | remaining activity | 84.4% |
| O=C=[N][Ru-4]123([n]4c5ccc(O)cc5c5c6c(c7cc(F)c[n+]1c7c54)C(=O)NC6=O)[S+]1CC[S+]2CC[S+]3CC1 (stereo not drawn) | RPS6KB1 (Homo sapiens, UniProt P23443) | kinase activity, inhibitor | – | 100 nM, added: 10 µM ATP | – | remaining activity | 54% |
| COc1cc(CNC(=O)C[C@H](C)CCC=C(C)C)ccc1OCc1cn(-c2cccc([N+](=O)[O-])c2)nn1 | Hs-578T breast cancer cells | SRB | – | 10 µM, 48 h | – | growth percent | 68.2% |
| CC(=O)N[C@@H](Cc1c[nH]c2ccccc12)C(=O)N[C@@H](Cc1c[nH]c2ccccc12)C(=O)N[C@@H](Cc1c[nH]c2ccccc12)C(=O)N[C@@H](Cc1c[nH]c2ccccc12)C(=O)N[C@@H](Cc1c[nH]c2ccccc12)C(=O)N[C@@H](Cc1c[nH]c2ccccc12)C(=O)NCCCC[C@@H]1NC(=O)[C@H](CCCNC(=N)N)NC(=O)[C@H](CCCNC(=N)N)NC(=O)[C@H](CCCNC(=N)N)NC(=O)[C@H](CCCNC(=N)N)NC(=O)[C@H](CCCNC(=N)N)NC(=O)[C@H](CCCNC(=N)N)NC1=O | MTOR | enzyme activity, inhibitor | – | 5 µM | – | remaining activity | 153% |
| NC(CNC(CNC(CC(=O)O)C(=O)O)C(=O)O)C(=O)O (stereo not drawn) | IMP-7 metallo-beta-lactamase | – | – | 500 µM, 0 min, Zn-depleted buffer | – | remaining activity | 87.4 ± 5.1% |
| NS(=O)(=O)Nc1ncnc(OCCOc2ncc(Br)cn2)c1-c1ccc(Br)cc1 | – | M6 formation | female Beagle dog, liver microsomes | 500 mg/kg daily for 4 weeks | – | Km | 6.7 ± 2.2 µM |
| Cc1ccc2c(c1)/C(=N/N=C/c1ccc(OCc3cccc(F)c3)cc1)C(=O)N2 | MAOA | enzyme activity, inhibitor | – | 10 µM | – | remaining activity | 84.4% |
| N=C(N)NCCC[C@@H]1NC(=O)[C@H](Cc2c[nH]c3ccccc23)NC(=O)[C@H](CCCNC(=N)N)NC(=O)[C@H](Cc2c[nH]c3ccccc23)NC(=O)[C@H](CCCNC(=N)N)NC(=O)[C@H](Cc2c[nH]c3ccccc23)NC(=O)[C@H](CCCNC(=N)N)NC(=O)[C@H](Cc2c[nH]c3ccccc23)NC(=O)[C@H](CCCNC(=N)N)NC(=O)[C@H](Cc2c[nH]c3ccccc23)NC(=O)[C@H](CCCNC(=N)N)NC(=O)[C@H](Cc2c[nH]c3ccccc23)NC(=O)[C@H](CCCNC(=N)N)NC(=O)[C@H](Cc2c[nH]c3ccccc23)NC(=O)[C@H](CCCNC(=N)N)NC(=O)[C@H](Cc2c[nH]c3ccccc23)NC(=O)[C@H](CCCNC(=N)N)NC(=O)[C@H](Cc2c[nH]c3ccccc23)NC1=O | MTOR | enzyme activity, inhibitor | – | 5 µM | – | remaining activity | 133% |
| O=C1Nc2ccc(Cl)cc2/C1=N/N=C/c1ccc(OCc2ccccc2)cc1 | MAOA | enzyme activity, inhibitor | – | 10 µM | – | remaining activity | 84.7% |
| O=C1Nc2ccc(I)cc2C1=Cc1cc(Br)c(O)c(Br)c1 | beta-lactamase | – | – | up to 25 µM, added: nitrocefin substrate | – | remaining activity | no effect |
| CC1(C)CCN(Cc2ccc(C(=O)NC[C@]3(O)CCCN(c4cc(NCc5ccccc5)ncn4)C3)c(O)c2)CC1 | PDGFRA (Homo sapiens, UniProt P16234) | kinase activity, radiometric | – | 10 µM, added: 10 µM ATP | – | remaining activity | 81% |
